Measurements from different studies.
Parts stem from different laboratories: compare values within a part only. Changes are numbered by the printed parent chain.

Block 1
Target: CCND2, cyclin fold, Cln2 fusion (human)
Method: yeast growth competition, sequencing
Matrix: yeast
Setting: weak parent motif
Reference: not given
Direction: higher = stronger binding
Parent: AKAP12 docking peptide (human); GSPLKKLFTSTGL; partner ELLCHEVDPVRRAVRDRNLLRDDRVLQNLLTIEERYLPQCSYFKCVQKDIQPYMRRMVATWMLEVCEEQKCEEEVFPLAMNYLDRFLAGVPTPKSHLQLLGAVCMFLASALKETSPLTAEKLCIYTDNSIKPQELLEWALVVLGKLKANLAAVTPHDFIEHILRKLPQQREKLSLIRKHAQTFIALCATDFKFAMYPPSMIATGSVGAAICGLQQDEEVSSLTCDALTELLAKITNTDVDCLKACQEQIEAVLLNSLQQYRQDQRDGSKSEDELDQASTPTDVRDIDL
| Variant | normalised enrichment score |
| --- | --- |
| GSPLKKLFTSAGL [T11A] | -0.567 |
| GSPLKKLLTSTGL [F8L] | -0.788 |
| GSPLKKLFTSTAL [G12A] | -0.251 |
| GSPLKKLFTSTGA [L13A] | 0.293 |
| GSPLAKLFTSTGL [K5A] | -0.164 |
| GSPAKKLFTSTGL [L4A] | 0.0578 |
| GSPLRKLLTSTGL [K5R F8L] | -0.54 |
| GSPLKKLFTATGL [S10A] | 0.07 |
| GSPLAKAFTSTGL [K5A L7A] | -0.237 |
| ASPLKKLFTSTGL [G1A] | 0.202 |

Block 2
Target: Sal-like protein 4, full length isoform B (SALL4, Homo sapiens, UniProt Q9UJQ4-2, residues 1-616)
Method: universal PBM
Form: double-stranded DNA, one strand shown
Matrix: in vitro
Tested at: not given
Setting: 8-mer, flanks averaged, mean of replicates
Direction: higher = stronger binding
| Sequence | E-score |
| --- | --- |
| GTAAGTAA | 0.175 |
| CCGAGCCG | -0.344 |
| CGGTCACA | -0.204 |
| CATTTACC | 0.171 |
| CCTGGTCC | -0.364 |
| ACTCTGTC | -0.0833 |
| CGCAGACC | -0.264 |
| TAACAGAA | 0.245 |
| CAGGCTAG | -0.249 |
| AGGCTTTA | 0.108 |

Block 3
Target: RING finger protein unkempt homolog, zinc fingers 1-6, GST-SBP tag (UNK, Homo sapiens, UniProt Q9C0B0, residues 30-357)
Method: RNA Bind-n-Seq
Form: RNA
Matrix: in vitro
Tested at: not given
Setting: RNA with constant flanks, human and mouse sites, ends assumed
Reference: input RNA pool
Direction: higher = stronger binding
Residues (chain): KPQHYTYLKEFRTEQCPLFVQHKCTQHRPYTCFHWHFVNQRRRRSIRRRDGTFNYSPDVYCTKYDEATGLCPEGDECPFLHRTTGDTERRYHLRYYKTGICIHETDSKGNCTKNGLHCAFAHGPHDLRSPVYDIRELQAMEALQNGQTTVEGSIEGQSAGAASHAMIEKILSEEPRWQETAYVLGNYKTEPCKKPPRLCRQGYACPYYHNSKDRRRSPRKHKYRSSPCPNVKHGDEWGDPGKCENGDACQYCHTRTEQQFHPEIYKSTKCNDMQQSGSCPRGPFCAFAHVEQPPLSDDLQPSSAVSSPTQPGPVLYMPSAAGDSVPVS
| Sequence | bound/input enrichment [ratio] |
| --- | --- |
| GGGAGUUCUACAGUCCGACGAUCGAAAGGGGUUCAUCUCAGAGACCAUAUCGAGAAUCUUCUGACAAUGAAGGUAGGCGUACAACUAGGAGAUUGCUGUCACGGAUAGCUUCUAGCAUGUCAUCUACUUUUUUCUCACGAAGACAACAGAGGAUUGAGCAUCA | 0.113 |
| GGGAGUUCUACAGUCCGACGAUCAUGGCCCUAAAGAUUGUGCCAAGAGUGAUGACGAGGAGAGUCUGACUCUCCCUGAGAAGGAAACUGAAGGUGAAGGGCCCAGCCUGCCCAUGGCCUGCACCAAGACGGAACCCAUCGCCUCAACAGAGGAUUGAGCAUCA | 0.084 |
| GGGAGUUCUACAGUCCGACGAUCAACCAAGGCAUUGCUCCUGUCCAAGUCUGUACUAAUCUCUUGAUCAAGCAGGUGAUUGAAGUAGCUUGUGGUUCACAUCAUUCGAUGGCUUUAGCAGCUGAUGGAGAGUUAUUUGCUUGGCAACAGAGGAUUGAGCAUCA | 0.11 |
| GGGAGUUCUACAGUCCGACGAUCGACAAGCAGGUGCUGGUGCACUGGGGUUUCUACCCAGACAGCUAUGACACUUGGGUCCACAGUAAUGAUGUUGAUGCUGAAAUUGAAGAUGCACCAAUCCCAGAAAAGCCCUGGAAGGUUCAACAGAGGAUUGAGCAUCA | 0.293 |
| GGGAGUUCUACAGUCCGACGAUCUUUGCACAUUCGUCACCUCUGGAACGAGGUGGCAUUCACUCCAACCUGUGCUCUAGCCCUCUUAAUUCUAGAGCAGUGGAAGACUUCUCAUCAAGGAUGGAUCCCUGCAGCUAUGCCAUGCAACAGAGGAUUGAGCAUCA | 0.161 |
| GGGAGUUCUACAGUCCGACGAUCAAAAAAAGAAUAAAAAUCAGCCAUUUUCAACAAUUUAUAUUAUUUUUAAAAAUAAAUUUCACUAGUGCAUGGUUUUAAAAAGGAGAGAGAAUGCAACAGGGUGAUACAAAGAUACACCAUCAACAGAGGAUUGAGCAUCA | 1.3 |
| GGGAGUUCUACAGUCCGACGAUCCAGAUCAGUAAGCAAGGUCUUUGUGGGGCAGUUGUCGACCUCACCAAGACAUCUGAACAUAUUCAGUUUUCAGUAGAAGAACUUAAAAAUUUGUUCACAUUACAUGAAAGUUCAGAUUGUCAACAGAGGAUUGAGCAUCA | 0.177 |
| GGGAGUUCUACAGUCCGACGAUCCUCGGCCGCCUGCCGUGCCCGUCUGCGCCCGUGUCAUCCUCACUCGGGACGCAGGGACCGUUUUUAAAUCACAGGGGCGUGUGUCAGCCUGCCCUAGGACUUCAUGUCUAUAUAUUUCCCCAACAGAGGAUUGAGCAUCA | 0.316 |
| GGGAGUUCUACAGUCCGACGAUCGAUCUCCAUACAAAUGUUGCCACUGCUGUUUUAGAACAUAUAAAGGCAAGAAAAUUGGAUGUAUAUUUUGAAUAUGAAGAAAAAAUAAUGAGCAAAACUACUCUGGAUAAAUCUCUUCUACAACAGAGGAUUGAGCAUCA | 0.256 |
| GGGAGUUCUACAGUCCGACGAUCACCACUGGUGGCAUUGAUGAUAUGUAUCUCAAGUAUUUUGUGGAAGCUGGUGCCAUGGCUGUUAGGAGAGUUUUAAAACGAGACCUGAAGCAUGUUGCAAAAGCUUCUGGAGCAAGUAUCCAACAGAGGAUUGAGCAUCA | 0.117 |
| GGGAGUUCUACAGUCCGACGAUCCCUGCAGCCGGGGGACGCUUCUGGGUUGGAGGACCUUCUGGAUGUAGCGUCGGUGGAACCUUUAGAUACUCUCCUCUGGAAAAGCCACCAUGAAUUCGGUAGCUGGGAAUAAAGAGAGGCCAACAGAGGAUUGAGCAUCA | 0.581 |

Other studies, line by line
| Substance | target | test | test system | setting | scale | quantity | result |
| --- | --- | --- | --- | --- | --- | --- | --- |
| PhoQ, residues 284 288 289 292 302 303 AGHLVA | PhoP, residues 12 14 15 18 19 LHHSG (Escherichia coli, UniProt P23836) | Sort-seq, refers to: YFP reporter | E. coli | PhoQ-PhoP variant library, with: 10 µM Mg2+ | reference: high Mg2+ state, higher = stronger signaling | fold induction | 2.14 |

Repeated from above (block 1):
| Variant | normalised enrichment score |
| --- | --- |
| GSPLAKLFTSTGL [K5A] | -0.164 |
| GSPLKKLFTSTGA [L13A] | 0.293 |
| GSPLKKLFTSTAL [G12A] | -0.251 |
